Measured values collected from several papers.
A part holds a random share of what one study measured. Several values in a cell are separate wells, animals, samples, runs or records.
UniProt Q96PF2, sequence (whole entry, looked up): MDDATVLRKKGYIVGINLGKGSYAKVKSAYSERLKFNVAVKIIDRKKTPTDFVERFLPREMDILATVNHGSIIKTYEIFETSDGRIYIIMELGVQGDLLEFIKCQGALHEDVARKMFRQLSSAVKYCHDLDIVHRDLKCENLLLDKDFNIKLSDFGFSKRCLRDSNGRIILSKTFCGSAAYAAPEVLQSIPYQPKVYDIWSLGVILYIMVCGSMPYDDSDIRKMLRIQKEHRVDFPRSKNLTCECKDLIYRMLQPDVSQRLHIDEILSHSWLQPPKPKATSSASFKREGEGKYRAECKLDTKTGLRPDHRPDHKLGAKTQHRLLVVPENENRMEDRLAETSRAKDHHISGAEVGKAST
UniProt O75582, sequence (whole entry, looked up): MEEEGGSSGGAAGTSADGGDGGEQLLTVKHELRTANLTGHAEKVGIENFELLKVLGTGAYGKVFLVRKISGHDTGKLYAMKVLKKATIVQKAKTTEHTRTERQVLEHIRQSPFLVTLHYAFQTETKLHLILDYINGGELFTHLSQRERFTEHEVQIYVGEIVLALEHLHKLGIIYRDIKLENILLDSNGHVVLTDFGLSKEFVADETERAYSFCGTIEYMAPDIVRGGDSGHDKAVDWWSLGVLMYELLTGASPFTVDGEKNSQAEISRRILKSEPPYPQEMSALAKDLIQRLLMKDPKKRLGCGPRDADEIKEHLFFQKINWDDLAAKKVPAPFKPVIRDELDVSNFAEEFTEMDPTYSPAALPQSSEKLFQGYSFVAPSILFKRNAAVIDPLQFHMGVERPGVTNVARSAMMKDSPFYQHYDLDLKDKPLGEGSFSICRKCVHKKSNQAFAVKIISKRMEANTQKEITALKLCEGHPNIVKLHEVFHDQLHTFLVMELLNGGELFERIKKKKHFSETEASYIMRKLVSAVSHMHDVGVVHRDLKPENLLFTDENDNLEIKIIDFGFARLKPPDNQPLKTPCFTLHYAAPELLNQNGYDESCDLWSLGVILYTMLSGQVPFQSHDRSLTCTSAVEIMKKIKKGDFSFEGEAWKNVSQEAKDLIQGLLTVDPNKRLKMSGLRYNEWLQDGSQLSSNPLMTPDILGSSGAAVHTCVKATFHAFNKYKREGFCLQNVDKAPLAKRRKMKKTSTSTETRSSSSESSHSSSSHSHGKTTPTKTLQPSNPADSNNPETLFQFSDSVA
UniProt P30530, sequence (whole entry, looked up): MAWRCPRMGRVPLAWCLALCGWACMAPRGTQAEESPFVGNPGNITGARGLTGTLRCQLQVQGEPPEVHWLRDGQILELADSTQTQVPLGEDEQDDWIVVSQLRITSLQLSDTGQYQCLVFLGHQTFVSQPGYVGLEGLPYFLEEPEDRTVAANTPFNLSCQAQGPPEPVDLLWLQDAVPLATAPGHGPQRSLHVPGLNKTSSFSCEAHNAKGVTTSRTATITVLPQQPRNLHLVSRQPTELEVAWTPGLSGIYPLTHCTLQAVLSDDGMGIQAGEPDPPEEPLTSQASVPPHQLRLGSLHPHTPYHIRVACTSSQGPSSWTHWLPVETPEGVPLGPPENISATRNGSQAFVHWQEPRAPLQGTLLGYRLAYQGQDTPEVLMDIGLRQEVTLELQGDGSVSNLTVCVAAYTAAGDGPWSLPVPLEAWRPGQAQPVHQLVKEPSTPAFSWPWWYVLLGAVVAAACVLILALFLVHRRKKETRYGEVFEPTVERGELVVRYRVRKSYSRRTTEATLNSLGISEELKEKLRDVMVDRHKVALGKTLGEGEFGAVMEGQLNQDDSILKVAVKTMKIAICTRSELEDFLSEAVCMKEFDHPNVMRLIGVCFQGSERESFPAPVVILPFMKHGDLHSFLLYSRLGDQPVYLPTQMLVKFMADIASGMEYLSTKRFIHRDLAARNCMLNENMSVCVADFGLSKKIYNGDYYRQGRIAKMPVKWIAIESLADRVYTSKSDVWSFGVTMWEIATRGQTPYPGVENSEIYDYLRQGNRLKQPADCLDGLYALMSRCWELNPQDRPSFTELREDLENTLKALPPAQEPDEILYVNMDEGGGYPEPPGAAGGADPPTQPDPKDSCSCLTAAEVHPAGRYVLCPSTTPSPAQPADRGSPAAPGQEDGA
UniProt Q9UQM7, sequence (whole entry, looked up): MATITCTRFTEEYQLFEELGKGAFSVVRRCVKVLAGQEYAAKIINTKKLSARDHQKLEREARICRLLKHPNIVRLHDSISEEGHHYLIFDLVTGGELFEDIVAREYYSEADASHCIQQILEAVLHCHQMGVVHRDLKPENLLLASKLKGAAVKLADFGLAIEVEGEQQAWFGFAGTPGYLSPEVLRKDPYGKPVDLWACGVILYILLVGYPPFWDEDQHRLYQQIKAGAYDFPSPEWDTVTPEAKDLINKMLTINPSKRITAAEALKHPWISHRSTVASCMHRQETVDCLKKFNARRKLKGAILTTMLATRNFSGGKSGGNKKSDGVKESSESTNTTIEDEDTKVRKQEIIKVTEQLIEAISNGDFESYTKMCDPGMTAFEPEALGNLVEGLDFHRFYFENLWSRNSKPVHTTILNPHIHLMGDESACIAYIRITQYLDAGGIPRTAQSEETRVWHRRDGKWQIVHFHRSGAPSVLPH
UniProt Q16816, sequence (whole entry, looked up): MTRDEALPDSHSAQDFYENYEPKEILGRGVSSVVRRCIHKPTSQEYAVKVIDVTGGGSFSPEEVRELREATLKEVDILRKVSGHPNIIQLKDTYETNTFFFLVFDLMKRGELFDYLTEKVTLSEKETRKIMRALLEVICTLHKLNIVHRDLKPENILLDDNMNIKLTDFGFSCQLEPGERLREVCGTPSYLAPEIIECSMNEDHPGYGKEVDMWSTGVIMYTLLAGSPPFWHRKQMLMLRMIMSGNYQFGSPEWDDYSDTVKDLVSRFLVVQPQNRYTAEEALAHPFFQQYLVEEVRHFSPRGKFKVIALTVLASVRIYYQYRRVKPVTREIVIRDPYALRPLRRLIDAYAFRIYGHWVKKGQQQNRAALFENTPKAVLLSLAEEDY
UniProt P06493, sequence (whole entry, looked up): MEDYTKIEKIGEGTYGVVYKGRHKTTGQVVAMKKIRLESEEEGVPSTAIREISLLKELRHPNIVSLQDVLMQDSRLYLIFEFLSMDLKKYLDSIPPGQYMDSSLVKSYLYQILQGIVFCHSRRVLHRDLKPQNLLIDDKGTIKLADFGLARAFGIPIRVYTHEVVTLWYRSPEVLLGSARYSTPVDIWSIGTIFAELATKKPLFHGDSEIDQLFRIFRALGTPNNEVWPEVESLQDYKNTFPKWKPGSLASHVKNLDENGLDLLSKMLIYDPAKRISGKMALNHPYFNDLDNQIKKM

Study 1
SMILES: CC(C)S(=O)(=O)c1cc2c(Nc3ccc4sc(C5CCCC5)nc4c3)ccnc2cc1OCCO
cell line	test	conditions	viability
L929	necroptosis protection, CCK-8	1.111 µM, with: TNF-α plus zVAD	80.2%
L929	CCK-8	0.781 µM	97.9% and 101% and 99% and 103%
L929	necroptosis protection, CCK-8	0.00457 µM, with: TNF-α plus zVAD	27%
L929 RIPK3 knockout		1.563 µM, with: zVAD	96.2% and 97.9% and 90.2% and 92.4% and 92%
L929	CCK-8	12.5 µM, with: zVAD	81.6% and 96.3% and 78.5% and 76.4%
L929	CCK-8	0.781 µM, with: zVAD	90.6% and 87.1% and 93.3% and 87.9% and 93.5%
L929	CCK-8	12.5 µM	77% and 92.3% and 74% and 73.9%
L929	necroptosis protection, CCK-8	0.041 µM, with: TNF-α plus zVAD	31.2%
L929	CCK-8	3.125 µM	95.9% and 98% and 97.7% and 99.2%
L929 RIPK3 knockout		50 µM	54.2% and 52.4% and 52% and 54.6% and 56.2%

Study 2 — observed: enzyme activity; mode: inhibitor; concentration: 0.5 µM; relative to: control
SMILES: N/C(=N\[N+](=O)[O-])N/N=C\c1ccc(-c2cccc([N+](=O)[O-])c2)o1
target	remaining activity
AXL (Homo sapiens, UniProt P30530)	100%
RPS6KA5 (Homo sapiens, UniProt O75582)	101%
PHKG1 (Homo sapiens, UniProt Q16816)	101%
Cyclin-dependent kinase 1, with cyclin B (CDK1, Homo sapiens, UniProt P06493)	87.9%
TSSK2 (Homo sapiens, UniProt Q96PF2)	101%

Study 3 — observed: ligand displacement; concentration: 10 µM
Target: Muscarinic acetylcholine receptor M1 (CHRM1, Homo sapiens, UniProt P11229)
UniProt P11229, sequence (whole entry, looked up): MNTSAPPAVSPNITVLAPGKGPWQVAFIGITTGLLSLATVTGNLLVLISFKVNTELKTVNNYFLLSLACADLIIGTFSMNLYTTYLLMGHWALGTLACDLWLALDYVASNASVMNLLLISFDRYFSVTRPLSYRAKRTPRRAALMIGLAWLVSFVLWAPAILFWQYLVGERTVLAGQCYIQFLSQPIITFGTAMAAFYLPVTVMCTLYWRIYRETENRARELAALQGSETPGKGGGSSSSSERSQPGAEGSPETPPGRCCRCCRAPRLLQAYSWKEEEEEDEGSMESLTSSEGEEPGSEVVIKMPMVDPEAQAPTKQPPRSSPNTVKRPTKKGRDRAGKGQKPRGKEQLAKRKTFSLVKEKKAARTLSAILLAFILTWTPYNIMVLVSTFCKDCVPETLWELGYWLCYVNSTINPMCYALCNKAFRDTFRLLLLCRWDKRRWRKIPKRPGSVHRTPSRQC
Compound	inhibition [%]
CN1CCN(c2cnc3c(C4CCN(C(=O)c5ccc(OC(F)(F)F)cc5N)CC4)ncnc3c2)CC1	3.17
O=C(NS(=O)(=O)c1ccc(NCC2CCOCC2)c([N+](=O)[O-])c1)c1ccc(N2CCN(Cc3ccc(C(F)(F)F)cc3-c3ccc(Cl)cc3)CC2)cc1Oc1cnc2[nH]ccc2c1	-6.07
COc1cc(N[C@@H]2CCCC[C@]2(O)C(F)(F)F)ccc1F	18.5
Nc1cnc(N2CCc3cc(S(=O)(=O)Nc4c(F)cc(Cl)cc4F)cc(N4CCCC4=O)c32)nc1	-9.48
CN(C)c1ncnc(-c2ccc3nc(Nc4cc(CN5CCN(C(=O)CC(F)(F)F)CC5)ccn4)[nH]c3c2)c1Cl	32.1

Further values, each from its own experiment
SMILES	target	test	conditions	endpoint	value
COC(=O)C1=CO[C@@H](C)[C@H]2CN3CC[C@]4(C(=O)Nc5ccccc54)[C@@H]3C[C@H]12	Calcium/calmodulin-dependent protein kinase type II subunit alpha (CAMK2A, Homo sapiens, UniProt Q9UQM7)	enzyme activity, inhibitor	10 µM	inhibition	12%

A few entries again (study 2):
target	remaining activity
PHKG1 (Homo sapiens, UniProt Q16816)	101%
RPS6KA5 (Homo sapiens, UniProt O75582)	101%
